{"data": "Earlier results that unrelated publications cite", "note": "Each numbered part shows a few of the values that one paper quotes."}
{"data": "Study 1", "organism": "Toxoplasma gondii", "effect on": "parasite growth", "concentration": "concentration not given", "notes": "drug repurposing screen"}
{"Compound": "Cc1c(C(=O)NN2CCCCC2)nn(-c2ccc(Cl)cc2Cl)c1-c1ccc(I)cc1", "activity class": "inactive"}
{"Compound": "CN(C)CCCN1c2ccccc2CCc2ccc(Cl)cc21", "activity class": "inactive"}
{"Compound": "CN(C)CCCC1(c2ccc(F)cc2)OCc2cc(C#N)ccc21 (stereo not shown)", "activity class": "inactive"}
{"Compound": "COC(=O)C1=C(C)NC(C)=C(C(=O)OC)C1c1ccccc1[N+](=O)[O-]", "activity class": "inactive"}
{"data": "Further values, each from its own experiment"}
{"Compound": "O=C(O)c1cc(-c2ccc(C3CCNCC3)cc2)c2ccc(-c3ccc(C(F)(F)F)cc3)cc2c1", "target": "INSR", "assay": "enzyme activity, Eurofins-Panlabs panel", "setting": "concentration not given", "quantity": "IC50", "result": "4310 nM"}
{"Compound": "Cc1cc(C)nc(NC(=S)N2CCN(c3ccncc3)CC2)c1", "target": "PHGDH", "assay": "enzyme activity", "setting": "concentration not given", "quantity": "inhibition", "result": "no inhibition"}
{"Compound": "O=C(O)[C@@H]1[C@@H](Cn2nnc3ccccc3c2=O)CC[C@H]1C(=O)c1ccc(OCCC2CCOCC2)cc1", "target": "MMP12", "assay": "biochemical activity", "quantity": "IC50", "result": "80 nM"}
{"Compound": "CCn1c(=O)c(-c2cc(NC(=O)Nc3ccccc3)c(F)cc2Br)cc2cnc(N)cc21", "target": "human serum albumin", "quantity": "plasma protein binding", "result": "99.7%"}
{"Compound": "Cc1ncc(-c2cc(Cl)ccc2F)cc1-n1c(=O)n(CC(N)=O)c2ccccc21", "target": "TGFBR1", "assay": "cell-based", "quantity": "IC50", "result": "> 10000 nM"}
{"Compound": "CO[C@@H](C)c1c(Nc2ccc([C@H](N(C)C(=O)C3CCS(=O)(=O)CC3)C(F)(F)F)cc2)cnc2cc(Cl)nn12", "target": "MALT1 (human)", "assay": "enzyme activity", "setting": "low salt", "quantity": "IC50", "result": "18 nM"}
{"note": "A few entries again (further values, each from its own experiment):"}
{"Compound": "O=C(O)[C@@H]1[C@@H](Cn2nnc3ccccc3c2=O)CC[C@H]1C(=O)c1ccc(OCCC2CCOCC2)cc1", "target": "MMP12", "assay": "biochemical activity", "quantity": "IC50", "result": "80 nM"}
